# Published values pooled from the literature.
# Each line is one published result; not all experiments were run side by side. Numbers after ± are the reported error.
# Chain of UniProt P50052 (whole entry, unmodified, looked up): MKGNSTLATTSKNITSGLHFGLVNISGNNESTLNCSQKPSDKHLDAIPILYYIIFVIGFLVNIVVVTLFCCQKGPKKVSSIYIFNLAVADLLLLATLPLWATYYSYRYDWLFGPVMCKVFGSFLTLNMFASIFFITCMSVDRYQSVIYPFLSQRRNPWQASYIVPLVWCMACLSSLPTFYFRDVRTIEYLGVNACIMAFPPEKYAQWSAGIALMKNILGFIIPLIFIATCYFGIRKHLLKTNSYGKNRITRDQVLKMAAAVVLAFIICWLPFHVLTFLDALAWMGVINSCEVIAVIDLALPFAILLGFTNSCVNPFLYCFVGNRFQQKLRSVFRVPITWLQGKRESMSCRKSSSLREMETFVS
SMILES,tested on,assay,system,setting,how to read,measurement,result
Cc1cccc(Cn2ncc3c4cc(F)c(CN(C)C)cc4n(C)c3c2=O)n1,,,"rd10 mouse, retina","intraperitoneal, 50 mg/kg at P14, P21",,CD11b+/CD45+/Ly6C+ inflammatory monocytes,decreased
CC(=O)N[C@@H](CC(N)=O)C(=O)NCC(=O)N[C@@H](C)C(=O)N[C@@H](C)C(N)=O,,1H NMR,sodium phosphate buffer 50 mM,"pH 7.4, 46 °C",,rate constant succinimide to α-Asp,0.229 h⁻¹
CCCC[C@H](NC(=O)CCCCCCCNC(=O)CN1CCN(CC(=O)O)CCN(CC(=O)O)CC1)C(=O)N[C@H]1CC(=O)NCCCC[C@@H](C(N)=O)NC(=O)[C@H](Cc2c[nH]c3ccccc23)NC(=O)[C@H](CCCNC(=N)N)NC(=O)[C@@H](Cc2ccccc2)NC(=O)[C@H](Cc2c[nH]cn2)NC1=O [copper-64 labelled],,,"C57 mice, blood","intravenous, 0.37 MBq, 0.5 h",,tissue uptake,2.01 ± 0.6 %ID/g
C=C(c1ccc(C(=O)O)c(F)c1)c1cc2c(cc1C)C(C)(C)C=CC2(C)C,,"RNA sequencing, item: Rbp1","rat, brain","dose not given, 24 h",reference: vehicle,log2 fold change,-0.63
COc1cc(CCC(C)=O)ccc1O,mouse mAb 1-D6,"antibody binding, indirect competitive ELISA",,added: coating antigen 3-OVA,,IC50,0.0236 µg/mL
CCCC[C@H](NC(=O)[C@@H](NC(=O)[C@H](CC(=O)O)NC(=O)[C@H](CCC(N)=O)NC(=O)[C@H](CC(C)C)NC(=O)[C@H](CC(C)C)NC(=O)[C@H](CCCN)NC(=O)[C@H](CCCNC(=N)N)NC(=O)[C@H](C)NC(=O)[C@H](CO)NC(=O)[C@H](CC(C)C)NC(=O)[C@H](CCC(N)=O)NC(=O)[C@H](CC)NC(=O)[C@H](CC(C)C)NC(=O)[C@@H](NC(=O)[C@H](CCCN)NC(=O)[C@H](CCCNC(=N)N)NC(=O)[C@H](Cc1ccc(O)cc1)NC(=O)[C@H](CO)NC(=O)[C@H](CCC(N)=O)NC(=O)[C@@H](NC(=O)[C@H](Cc1ccccc1)NC(=O)[C@@H](NC(=O)[C@H](C)NC(=O)[C@H](CC(=O)O)NC(=O)[C@H](C)NC(=O)[C@H](Cc1ccc(O)cc1)NC)[C@@H](C)CC)[C@@H](C)O)C(C)C)[C@@H](C)CC)C(=O)N[C@@H](CC(=O)O)C(=O)NCCCCNC(=N)N,,"GH release, ELISA","male rat, anaesthetised, serum","intravenous, 1 µg/kg, 5 min",,serum GH level,632 ± 110 ng/mL
CC(C)c1cnc(-c2cc(Cl)ccc2F)cc1Nc1ccncc1C(=O)NC(CO)CO,,item: pSMAD2,"4T1 tumour-bearing mouse, tumour",100 mg/kg twice daily,reference: vehicle,maximum inhibition,93%
O=Cc1c(O)ccc2ccccc12,HUVEC,"RNA sequencing, item: VIP",,"75 µM, 24 h",reference: DMSO,log2 fold change,2.77
COc1cc(CNC(=O)C[C@H](C)CCC=C(C)C)ccc1OCc1cn(-c2ccccc2F)nn1,OVCAR-5 ovarian cancer cells,SRB,,"10 µM, 48 h",,growth percent,94.9%
O=S(=O)(c1ccccc1)N(CCc1nnc(S)o1)c1ccccc1,,radiant heat tail flick,rat,100 mg/kg,,analgesic protection,68.2%
Cc1ncc2c(n1)CN(C(=O)Nc1nc(-c3cccs3)ccc1N)C2,,,"wild type mouse, hippocampal CA1","oral, 0.1 or 0.3 mg/kg daily, 14 days",reference: vehicle,dendritic spine density,no effect
COc1ccc2c(c1)c(CC(=O)OCC(=O)c1ccccc1)c(C)n2C(=O)c1ccc(Cl)cc1,,acetic acid writhing test,BALB/c mouse,"intraperitoneal, 20 mg/kg",reference: negative control,analgesia,71.1%
CCCCCCCCCCCC(=O)NCCC(=O)N[C@H](CCCNC(=N)N)C(=O)N[C@H](CCCNC(=N)N)C(=O)N[C@H](CCCNC(=N)N)C(=O)N[C@H](CCCNC(=N)N)C(=O)N[C@H](CCCNC(=N)N)C(=O)N[C@H](CCCNC(=N)N)C(=O)N[C@H](CCCNC(=N)N)C(=O)N[C@H](CCCNC(=N)N)C(=O)N[C@H](CCCNC(=N)N)C(=O)N[C@@H](CCCCNC(=S)Nc1ccc2c(c1)C(=O)OC21c2ccc(O)cc2Oc2cc(O)ccc21)C(N)=O,Jurkat,flow cytometry,,"10 µM, 48 h, loaded 10 min at 37 °C, then washed","reference: 0 h, higher = more retained",retained fluorescence,~20%
CCOC(=O)c1cc2c(N)c(C(=O)OC)sc2nc1C,,,Sprague-Dawley rats,"subcutaneous, 100 mg/kg",,duration of diuretic activity,~6 h
COc1ccc(-c2oc3ccccc3c(=O)c2OCc2ccccc2)cc1,,,diabetic rat,"7.5 mg/kg, 28 days, p-nitrophenyl β-glucoside induced",,serum LDL cholesterol,97.9 ± 3.1 mg/dL
Cc1ncc([N+](=O)[O-])n1CCOCc1nnc(SCC(=O)c2ccc(F)cc2)o1,,,,"75 µg/mL, 45 min",,DPPH scavenging,66.3 ± 0.35%
C[C@H](NC(=O)COC(=O)[C@H](C)NC(=O)CO)C(=O)O,,,water,"pH 3, 37 °C",,depolymerization rate constant,0.002 h⁻¹
Cc1ccc(C(=O)Nc2ccc(CP(=O)(O)O)cc2CP(=O)(O)O)cc1NC(=O)c1cccc(NC(=O)Nc2cccc(C(=O)Nc3cc(C(=O)Nc4ccc(CP(=O)(O)O)cc4CP(=O)(O)O)ccc3C)c2)c1,,,human plasma,423 µM,,APTT,73.2 ± 7.6 s
O=c1c(OCc2ccccc2)c(-c2ccc([N+](=O)[O-])cc2)oc2ccccc12,,,diabetic rat,"5 mg/kg, 28 days, p-nitrophenyl β-glucoside induced",,serum total cholesterol,160 ± 4.91 mg/dL
CC(=O)N[C@H](C(=O)N[C@H](C(=O)N[C@@H](CCCNC(=N)N)C(=O)N1Cc2ccccc2C[C@H]1C(=O)N[C@@H](Cc1ccccc1)C(N)=O)C1CCCCC1)C(C)C,,inhibitor,HLA-DR4 (DRB1*04:01) transgenic mice,dose not given,,antigen-specific cytokine response,no inhibition
CCCC[C@H](NC(=O)[C@@H](NC(=O)[C@H](CC(=O)O)NC(=O)[C@H](CCC(N)=O)NC(=O)[C@H](CC(C)C)NC(=O)[C@H](CC(C)C)NC(=O)[C@H](CCCN)NC(=O)[C@H](CCCNC(=N)N)NC(=O)[C@H](C)NC(=O)[C@H](CO)NC(=O)[C@H](CC(C)C)NC(=O)[C@H](CCC(N)=O)NC(=O)[C@H](CC)NC(=O)[C@H](CC(C)C)NC(=O)[C@@H](NC(=O)[C@H](CCCN)NC(=O)[C@H](CCCNC(=N)N)NC(=O)[C@H](Cc1ccc(O)cc1)NC(=O)[C@H](CO)NC(=O)[C@H](CCC(N)=O)NC(=O)[C@@H](NC(=O)[C@H](Cc1ccccc1)NC(=O)[C@@H](NC(=O)[C@H](C)NC(=O)[C@H](CC(=O)O)NC(=O)[C@@H](C)NC(=O)[C@H](Cc1ccc(O)cc1)NC)[C@@H](C)CC)[C@@H](C)O)C(C)C)[C@@H](C)CC)C(=O)N[C@@H](CC(=O)O)C(=O)N[C@@H](CCCNC(=N)N)C(=O)NC,,"GH release, ELISA","male rat, anaesthetised, serum","intravenous, 1 µg/kg, 15 min",,serum GH level,268 ± 21.1 ng/mL
CCc1nc2ccc(N(Cc3ccccc3)C(=O)c3cccs3)cc2c(=O)n1Cc1ccc(-c2ccccc2-c2nn[nH]n2)cc1,"Type-2 angiotensin II receptor (AGTR2, Homo sapiens, UniProt P50052, W269F)","ligand displacement, radioligand",,cell membranes,,Ki,3.16 nM
CC(=O)[O-].O.O.O.O.[Ni+2].[O-]c1ccc(Br)cc1C=NCCN1CCOCC1,,superoxide scavenging,,240 µM,,inhibition,60.6%
NS(=O)(=O)Nc1ncnc(OCCOc2ncc(Br)cn2)c1-c1ccc(Br)cc1,,metabolite formation,"male Sprague-Dawley rat, liver microsomes",50 mg/kg daily for 4 weeks,,Vmax,709 ± 67 pmol/min/mg
CCCCCCCOC(=O)Cc1c(C)n(C(=O)c2ccc(Cl)cc2)c2ccc(OC)cc12,,,"BALB/c mice, acetic acid writhing","intraperitoneal, 10 mg/kg, 20 min count",,writhing count,20.2 ± 1.49
CCOC(=O)Cc1csc(NC(=O)CCN2CCC(O)CC2)n1,,,,"0.1 mM, 1 h",,DPPH radical scavenging,14%
O=C1CCN(Cc2ccccc2)CC1C(C[N+](=O)[O-])c1ccccc1 (stereo not shown),,,mouse acetic acid writhing,"25 mg/kg, added: haloperidol 1 mg/kg pretreatment",,analgesic activity,17.2%
CCCc1nc2ccc(N(Cc3ccco3)C(=O)c3ccccc3)cc2c(=O)n1Cc1ccc(-c2ccccc2-c2nnn[nH]2)cc1,"Type-2 angiotensin II receptor (AGTR2, Homo sapiens, UniProt P50052, F308A)","ligand displacement, radioligand",,cell membranes,,Ki,43.7 nM
[64Cu+2].c1ccc(CNCc2ccc(CN3CCCN4CCNCCCN(CC4)CC3)cc2)nc1,CXCR4 (human),,"NOD/SCID mice, U87 xenografts, U87 control tumour",90 min post-injection,,tissue uptake,1.98 ± 0.49 %ID/g
CCCC[C@H](NC(=O)[C@@H](NC(=O)[C@H](CC(=O)O)NC(=O)[C@H](CCC(N)=O)NC(=O)[C@H](CC(C)C)NC(=O)[C@H](CC(C)C)NC(=O)[C@H](CCCN)NC(=O)[C@H](CCCNC(=N)N)NC(=O)[C@H](C)NC(=O)[C@H](CO)NC(=O)[C@H](CC(C)C)NC(=O)[C@H](CCC(N)=O)NC(=O)[C@H](CC)NC(=O)[C@H](CC(C)C)NC(=O)[C@@H](NC(=O)[C@H](CCCN)NC(=O)[C@H](CCCNC(=N)N)NC(=O)[C@H](Cc1ccc(O)cc1)NC(=O)[C@H](CO)NC(=O)[C@@H](NC(=O)[C@@H](NC(=O)[C@H](Cc1ccccc1)NC(=O)[C@@H](NC(=O)[C@H](C)NC(=O)[C@H](CC(=O)O)NC(=O)[C@@H](C)NC(=O)[C@H](Cc1ccc(O)cc1)NC)[C@@H](C)CC)[C@@H](C)O)[C@@H](C)O)C(C)C)[C@@H](C)CC)C(=O)N[C@@H](CC(=O)O)C(=O)N[C@@H](CCCNC(=N)N)C(=O)NC,,"GH release, ELISA","male Sprague-Dawley rat, anaesthetised, serum","subcutaneous, 3 µg/kg, 0 min",,serum GH level,34.1 ± 1.2 ng/mL
CCCCC/C=C/C(=O)CCc1ccc(O)c(OC)c1,mouse mAb 1-D6,"antibody binding, indirect competitive ELISA",,added: coating antigen 4-OVA,,IC50,0.134 µg/mL

# Some of these lines once more:
SMILES,tested on,assay,system,setting,how to read,measurement,result
COc1ccc2c(c1)c(CC(=O)OCC(=O)c1ccccc1)c(C)n2C(=O)c1ccc(Cl)cc1,,acetic acid writhing test,BALB/c mouse,"intraperitoneal, 20 mg/kg",reference: negative control,analgesia,71.1%
CCCCCCCCCCCC(=O)NCCC(=O)N[C@H](CCCNC(=N)N)C(=O)N[C@H](CCCNC(=N)N)C(=O)N[C@H](CCCNC(=N)N)C(=O)N[C@H](CCCNC(=N)N)C(=O)N[C@H](CCCNC(=N)N)C(=O)N[C@H](CCCNC(=N)N)C(=O)N[C@H](CCCNC(=N)N)C(=O)N[C@H](CCCNC(=N)N)C(=O)N[C@H](CCCNC(=N)N)C(=O)N[C@@H](CCCCNC(=S)Nc1ccc2c(c1)C(=O)OC21c2ccc(O)cc2Oc2cc(O)ccc21)C(N)=O,Jurkat,flow cytometry,,"10 µM, 48 h, loaded 10 min at 37 °C, then washed","reference: 0 h, higher = more retained",retained fluorescence,~20%
CCOC(=O)c1cc2c(N)c(C(=O)OC)sc2nc1C,,,Sprague-Dawley rats,"subcutaneous, 100 mg/kg",,duration of diuretic activity,~6 h
COc1ccc(-c2oc3ccccc3c(=O)c2OCc2ccccc2)cc1,,,diabetic rat,"7.5 mg/kg, 28 days, p-nitrophenyl β-glucoside induced",,serum LDL cholesterol,97.9 ± 3.1 mg/dL
